Assay results collected from several papers.
A part holds a random share of what one study measured. Positions count from the first letter of the parent shown.
UniProt Q16513, sequence (whole entry, looked up): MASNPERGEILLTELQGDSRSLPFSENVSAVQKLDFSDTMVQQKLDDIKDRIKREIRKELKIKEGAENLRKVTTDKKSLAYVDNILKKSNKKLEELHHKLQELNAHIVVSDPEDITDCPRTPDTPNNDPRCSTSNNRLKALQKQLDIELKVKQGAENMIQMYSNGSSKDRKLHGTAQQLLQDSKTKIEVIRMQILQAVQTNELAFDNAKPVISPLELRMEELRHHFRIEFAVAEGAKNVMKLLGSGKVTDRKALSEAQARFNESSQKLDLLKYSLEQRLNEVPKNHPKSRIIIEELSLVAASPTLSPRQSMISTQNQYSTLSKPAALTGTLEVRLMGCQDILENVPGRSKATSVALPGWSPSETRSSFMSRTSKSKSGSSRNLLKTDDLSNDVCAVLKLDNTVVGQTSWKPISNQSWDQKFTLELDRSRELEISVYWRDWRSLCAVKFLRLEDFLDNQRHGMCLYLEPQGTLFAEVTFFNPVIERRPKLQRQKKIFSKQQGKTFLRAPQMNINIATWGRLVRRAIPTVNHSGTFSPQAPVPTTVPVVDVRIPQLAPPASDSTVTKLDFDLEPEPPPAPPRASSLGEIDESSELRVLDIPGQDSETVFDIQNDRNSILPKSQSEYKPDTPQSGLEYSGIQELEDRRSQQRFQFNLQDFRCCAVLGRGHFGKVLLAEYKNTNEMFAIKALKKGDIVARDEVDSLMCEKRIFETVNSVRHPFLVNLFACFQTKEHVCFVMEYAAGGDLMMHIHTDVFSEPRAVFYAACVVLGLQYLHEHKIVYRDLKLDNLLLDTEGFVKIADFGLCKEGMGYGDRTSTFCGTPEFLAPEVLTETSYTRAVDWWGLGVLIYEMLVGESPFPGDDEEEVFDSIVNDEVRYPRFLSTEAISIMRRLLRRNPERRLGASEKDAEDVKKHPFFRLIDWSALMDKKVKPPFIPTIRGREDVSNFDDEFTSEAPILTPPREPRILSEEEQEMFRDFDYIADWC
UniProt Q15139, sequence (whole entry, looked up): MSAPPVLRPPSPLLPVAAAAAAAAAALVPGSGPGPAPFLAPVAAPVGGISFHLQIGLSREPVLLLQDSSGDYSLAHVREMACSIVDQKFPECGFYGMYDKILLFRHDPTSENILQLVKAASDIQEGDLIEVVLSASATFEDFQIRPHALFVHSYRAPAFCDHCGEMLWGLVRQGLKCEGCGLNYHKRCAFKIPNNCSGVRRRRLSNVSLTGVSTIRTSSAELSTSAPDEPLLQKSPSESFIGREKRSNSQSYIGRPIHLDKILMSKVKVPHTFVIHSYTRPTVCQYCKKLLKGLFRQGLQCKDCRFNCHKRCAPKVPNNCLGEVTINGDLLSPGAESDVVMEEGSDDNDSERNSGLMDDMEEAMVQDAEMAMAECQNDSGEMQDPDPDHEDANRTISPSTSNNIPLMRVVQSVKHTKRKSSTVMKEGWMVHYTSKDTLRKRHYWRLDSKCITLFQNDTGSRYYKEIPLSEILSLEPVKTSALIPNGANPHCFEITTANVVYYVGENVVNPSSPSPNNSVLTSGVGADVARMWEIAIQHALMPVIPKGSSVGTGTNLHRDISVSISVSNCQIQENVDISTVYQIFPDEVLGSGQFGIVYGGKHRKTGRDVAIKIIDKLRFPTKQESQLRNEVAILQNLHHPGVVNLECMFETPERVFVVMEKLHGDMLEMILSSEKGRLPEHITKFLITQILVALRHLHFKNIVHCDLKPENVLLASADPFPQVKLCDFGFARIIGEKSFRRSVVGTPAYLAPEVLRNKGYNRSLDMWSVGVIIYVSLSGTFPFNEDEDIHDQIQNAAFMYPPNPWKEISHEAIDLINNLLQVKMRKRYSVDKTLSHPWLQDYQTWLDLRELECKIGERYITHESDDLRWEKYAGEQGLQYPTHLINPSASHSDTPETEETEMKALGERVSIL
UniProt P41279, sequence (whole entry, looked up): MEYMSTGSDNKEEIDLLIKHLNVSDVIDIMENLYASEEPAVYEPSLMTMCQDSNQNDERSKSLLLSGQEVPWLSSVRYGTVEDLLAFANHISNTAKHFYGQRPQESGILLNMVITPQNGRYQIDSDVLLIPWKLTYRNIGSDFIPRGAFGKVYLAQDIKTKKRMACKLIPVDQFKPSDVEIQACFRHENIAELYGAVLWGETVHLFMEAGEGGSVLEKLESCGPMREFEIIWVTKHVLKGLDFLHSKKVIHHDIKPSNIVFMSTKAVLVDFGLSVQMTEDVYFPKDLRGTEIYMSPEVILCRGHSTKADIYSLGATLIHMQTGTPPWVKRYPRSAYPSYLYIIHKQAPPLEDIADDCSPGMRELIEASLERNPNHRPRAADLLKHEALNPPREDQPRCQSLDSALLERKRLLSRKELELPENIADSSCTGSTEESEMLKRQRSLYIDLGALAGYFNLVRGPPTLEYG
UniProt P50613, sequence (whole entry, looked up): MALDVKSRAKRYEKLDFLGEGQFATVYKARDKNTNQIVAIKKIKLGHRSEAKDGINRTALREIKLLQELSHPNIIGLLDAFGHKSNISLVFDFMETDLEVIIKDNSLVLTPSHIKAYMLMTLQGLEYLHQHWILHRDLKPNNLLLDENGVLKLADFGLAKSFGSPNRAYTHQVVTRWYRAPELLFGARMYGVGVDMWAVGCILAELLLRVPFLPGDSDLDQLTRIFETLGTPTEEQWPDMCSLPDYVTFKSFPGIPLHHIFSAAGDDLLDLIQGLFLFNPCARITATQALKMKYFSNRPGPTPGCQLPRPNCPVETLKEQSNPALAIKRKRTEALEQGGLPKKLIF
UniProt P07949, sequence (whole entry, looked up): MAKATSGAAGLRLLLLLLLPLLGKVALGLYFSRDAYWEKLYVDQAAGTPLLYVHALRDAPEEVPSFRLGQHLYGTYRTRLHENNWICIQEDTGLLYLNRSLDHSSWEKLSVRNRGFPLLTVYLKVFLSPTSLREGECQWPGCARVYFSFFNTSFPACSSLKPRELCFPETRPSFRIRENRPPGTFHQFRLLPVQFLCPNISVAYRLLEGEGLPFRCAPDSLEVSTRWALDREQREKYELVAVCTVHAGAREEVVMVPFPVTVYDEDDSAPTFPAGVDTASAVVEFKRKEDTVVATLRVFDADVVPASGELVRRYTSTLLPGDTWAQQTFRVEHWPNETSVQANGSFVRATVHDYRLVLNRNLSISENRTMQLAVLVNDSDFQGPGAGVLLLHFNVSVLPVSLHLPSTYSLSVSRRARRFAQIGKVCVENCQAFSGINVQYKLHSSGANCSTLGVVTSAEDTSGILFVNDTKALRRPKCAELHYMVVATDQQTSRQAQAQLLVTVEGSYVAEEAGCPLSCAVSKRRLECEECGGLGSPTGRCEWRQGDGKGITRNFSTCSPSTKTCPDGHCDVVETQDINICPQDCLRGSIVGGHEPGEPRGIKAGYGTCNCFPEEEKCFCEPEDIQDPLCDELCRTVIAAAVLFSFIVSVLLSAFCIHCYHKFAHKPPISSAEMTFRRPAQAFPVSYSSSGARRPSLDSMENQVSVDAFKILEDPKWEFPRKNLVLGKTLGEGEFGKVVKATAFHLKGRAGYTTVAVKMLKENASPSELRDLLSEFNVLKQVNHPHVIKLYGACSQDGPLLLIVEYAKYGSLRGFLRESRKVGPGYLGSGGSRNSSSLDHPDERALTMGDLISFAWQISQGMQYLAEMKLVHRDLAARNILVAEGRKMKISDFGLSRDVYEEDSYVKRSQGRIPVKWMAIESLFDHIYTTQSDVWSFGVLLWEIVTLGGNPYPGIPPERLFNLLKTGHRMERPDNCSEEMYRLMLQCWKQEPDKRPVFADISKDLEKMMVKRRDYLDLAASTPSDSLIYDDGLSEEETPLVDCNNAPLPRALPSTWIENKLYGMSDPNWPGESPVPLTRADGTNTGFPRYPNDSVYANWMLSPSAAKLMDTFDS
UniProt Q14289, sequence (whole entry, looked up): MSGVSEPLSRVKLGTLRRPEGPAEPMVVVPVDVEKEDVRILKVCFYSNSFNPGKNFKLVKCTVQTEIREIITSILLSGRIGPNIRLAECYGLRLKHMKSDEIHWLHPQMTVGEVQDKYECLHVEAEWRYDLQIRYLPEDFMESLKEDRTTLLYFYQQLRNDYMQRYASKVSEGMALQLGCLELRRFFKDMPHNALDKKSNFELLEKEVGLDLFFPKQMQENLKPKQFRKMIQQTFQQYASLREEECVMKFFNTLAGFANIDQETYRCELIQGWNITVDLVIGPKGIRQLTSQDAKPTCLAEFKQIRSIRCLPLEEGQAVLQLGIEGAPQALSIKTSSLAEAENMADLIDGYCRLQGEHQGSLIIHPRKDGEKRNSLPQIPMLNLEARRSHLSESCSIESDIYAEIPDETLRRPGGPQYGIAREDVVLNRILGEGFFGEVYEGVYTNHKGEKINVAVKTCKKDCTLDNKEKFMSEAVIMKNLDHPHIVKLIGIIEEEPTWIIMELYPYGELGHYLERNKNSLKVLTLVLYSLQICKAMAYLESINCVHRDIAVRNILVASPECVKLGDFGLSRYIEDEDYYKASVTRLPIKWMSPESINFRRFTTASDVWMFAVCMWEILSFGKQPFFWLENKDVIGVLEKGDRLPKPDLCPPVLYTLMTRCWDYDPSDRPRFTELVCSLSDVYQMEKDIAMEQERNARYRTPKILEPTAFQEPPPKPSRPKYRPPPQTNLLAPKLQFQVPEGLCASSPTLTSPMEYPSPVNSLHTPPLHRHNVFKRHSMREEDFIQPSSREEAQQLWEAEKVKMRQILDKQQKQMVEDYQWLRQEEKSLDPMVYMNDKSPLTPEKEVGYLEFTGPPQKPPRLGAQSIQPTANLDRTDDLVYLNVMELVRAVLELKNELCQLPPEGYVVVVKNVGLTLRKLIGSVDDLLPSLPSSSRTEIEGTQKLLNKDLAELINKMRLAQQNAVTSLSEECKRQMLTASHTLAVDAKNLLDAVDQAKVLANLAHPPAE

Block 1
Target: CCND1, cyclin fold, Cln2 fusion (human)
Technique: yeast growth competition, sequencing
Matrix: yeast
Notes: weak parent motif
Reference: not given
Reading: higher = stronger binding
Measurement: normalised enrichment score
Starting sequence: viral docking peptide; TSVRRALFTGGSD
F8K: -0.128
G10Q: 0.375
G10N: 0.547
T9S: 0.17
S2P: 0.315
R4W: 0.848
S2E: 0.39
T9I: 0.385
A6P: -0.0771
V3T: 0.418
G10L: 0.508
F8Y: -0.167
R5P: 0.85
V3W: 0.412
S12V: 0.368
R4L: 0.653
V3E: 0.111
T9L: 0.474
G10I: 0.395
G11L: 0.271

Block 2
Target: Max-binding protein MNT, bHLH-zipper, MAX partner unstated (MNT, Homo sapiens, UniProt Q99583, residues 220-300)
Technique: protein-binding microarray
Molecule type: double-stranded DNA, one strand shown
Matrix: in vitro
Concentration: not given
Notes: k-mer, scored over probes, only values ≥0.25
Reading: higher = stronger binding
Measurement: E-score
Residues (chain): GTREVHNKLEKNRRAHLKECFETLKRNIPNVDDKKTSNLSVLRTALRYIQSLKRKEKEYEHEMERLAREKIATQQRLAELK
CGTGGTTC: 0.341
GGCGGGGA: 0.372
GGCCACGA: 0.283
GCATGCGC: 0.428
ACACGCTG: 0.403
ATGGCGTG: 0.342
CCATGCGG: 0.449
ACATGTTG: 0.378

Block 3
Compound: N/C(=N\[N+](=O)[O-])N/N=C\c1ccc(-c2cccc([N+](=O)[O-])c2)o1
Effect on: enzyme activity
Action: inhibitor
Concentration: 0.5 µM
Reference: control
Measurement: remaining activity
PKN2 (Homo sapiens, UniProt Q16513): 92.6%
EGFR (Homo sapiens, UniProt P00533): 100%
PRKD1 (Homo sapiens, UniProt Q15139): 103%
MAP3K8 (Homo sapiens, UniProt P41279): 98.8%
CDK7 (Homo sapiens, UniProt P50613): 100%
PTK2B (Homo sapiens, UniProt Q14289): 91.5%
RET (Homo sapiens, UniProt P07949): 99.9%

Block 4
Target: vanadate, free oxyanion
Technique: microfluidic competitive inhibition
Matrix: in vitro, cell-free expressed
Concentration: not given
Notes: derived from inhibition constants, unchanged parent 676 nM
Reading: lower = stronger binding
Measurement: oxyanion analog dissociation constant
Starting sequence: PafA, mature enzyme, eGFP fusion (Elizabethkingia meningoseptica, UniProt Q9KJX5); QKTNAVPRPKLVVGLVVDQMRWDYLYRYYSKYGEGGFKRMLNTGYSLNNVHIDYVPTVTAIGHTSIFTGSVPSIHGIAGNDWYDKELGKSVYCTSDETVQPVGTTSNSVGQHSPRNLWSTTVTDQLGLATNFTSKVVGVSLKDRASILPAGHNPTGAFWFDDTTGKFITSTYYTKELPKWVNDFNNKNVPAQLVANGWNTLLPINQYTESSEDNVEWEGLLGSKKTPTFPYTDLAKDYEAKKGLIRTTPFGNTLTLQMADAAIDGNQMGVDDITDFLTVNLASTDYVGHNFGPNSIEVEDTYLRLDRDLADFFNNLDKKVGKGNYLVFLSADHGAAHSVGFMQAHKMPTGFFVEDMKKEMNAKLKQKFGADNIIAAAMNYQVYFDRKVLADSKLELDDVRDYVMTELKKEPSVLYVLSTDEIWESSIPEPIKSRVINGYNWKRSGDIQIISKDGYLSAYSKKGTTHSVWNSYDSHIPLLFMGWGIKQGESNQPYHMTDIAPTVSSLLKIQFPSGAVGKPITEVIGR
T94V: 369 nM
A335G: 598 nM
D271G: 540 nM
T98V: 646 nM
R144V: > 182000 nM
K461V: 683 nM
L177G: 664 nM
T405V: 581 nM
S106V: 504 nM
S513V: 1070 nM
V413G: 1330 nM
P249V: 639 nM
D446G: 714 nM
T120V: 735 nM
L221V: 585 nM
L407G: 637 nM
Y286G: 1190 nM
E297V: 692 nM
V287A: 1330 nM
M360V: 802 nM
V102A: 516 nM
D391V: 719 nM

Repeated from above (block 3):
EGFR (Homo sapiens, UniProt P00533): 100%
PRKD1 (Homo sapiens, UniProt Q15139): 103%
MAP3K8 (Homo sapiens, UniProt P41279): 98.8%
CDK7 (Homo sapiens, UniProt P50613): 100%
PTK2B (Homo sapiens, UniProt Q14289): 91.5%
RET (Homo sapiens, UniProt P07949): 99.9%
